Experimental data pooled from the literature.
Compare with care: the assays were run in different laboratories. ± gives the spread as reported. Values after ≈ are worked out from the molar mass of the structure shown.
Organism: Candida albicans

Compound	test	system	conditions	how to read	quantity	value
CC[C@H]1OC(=O)[C@H](C)[C@@H](OC(=O)Cc2cccc(Cl)c2)[C@H](C)[C@@H](O[C@@H]2O[C@H](C)C[C@H](N(C)C)[C@H]2O)[C@](C)(OC)C[C@@H](C)C(=O)[C@H](C)[C@@H](O)[C@]1(C)O	microbial growth	ATCC90028			MIC	> 32 µg/mL
N=C(N)NCCC[C@@H]1NC(=O)[C@H](CCCNC(=N)N)NC(=O)[C@@H](C(c2ccccc2)c2ccccc2)NC(=O)[C@H](Cc2c[nH]c3ccccc23)NC(=O)[C@@H](C(c2ccccc2)c2ccccc2)NC(=O)[C@@H](CCCNC(=N)N)NC(=O)[C@@H](CCCNC(=N)N)NC1=O		ATCC 60193	4 x MIC, 8 h		reduction of viable cells	> 85%
CC[C@H]1OC(=O)[C@H](C)[C@@H](OC(=O)Cc2ccc(Cl)cc2)[C@H](C)[C@@H](O[C@@H]2O[C@H](C)C[C@H](N(C)C)[C@H]2O)[C@](C)(OC)C[C@@H](C)C(=O)[C@H](C)[C@@H](O)[C@]1(C)O	microbial growth	ATCC90028			MIC	> 32 µg/mL
COC(=O)[C@H](C)NC(=O)c1ccccc1NC(=O)[C@H](Cc1ccc(OC(C)(C)C)cc1)N(C)C(=O)[C@@H](NC(=O)OCc1ccccc1)C(C)C	potentiator, broth microdilution	ATCC 90029	32.0 µg/mL, with: amphotericin B	reference: amphotericin B alone	fold potentiation	32
O=C(NCC(O)(Cn1cncn1)c1ccc(F)cc1F)[c-]1cccc1.[Cl-].[Co+3].c1cc[cH-]c1 (racemic)	EUCAST	SC5314	48 h		MIC50	100 µM
CC(C)[C@H](NC(=O)OCc1ccccc1)C(=O)N(C)[C@@H](Cc1ccc(OC(C)(C)C)cc1)C(=O)Nc1ccccc1C(=O)N[C@@H](C)C(=O)O	potentiator, broth microdilution	ATCC 90029	32.0 µg/mL, with: amphotericin B	reference: amphotericin B alone	fold potentiation	32
N=C(N)NCCC[C@@H]1NC(=O)[C@H](CCCNC(=N)N)NC(=O)[C@H](CCCNC(=N)N)NC(=O)[C@@H](CCCNC(=N)N)NC(=O)[C@H](Cc2ccc3ccccc3c2)NC(=O)[C@H](Cc2ccc3ccccc3c2)NC(=O)[C@H](Cc2ccc3ccccc3c2)NC1=O	fungal growth				MIC	8 µg/mL (≈ 6.58 µM)
COC(=O)c1cnc(-c2cnccn2)cc1C(=O)OC.COC(=O)c1cnc(-c2cnccn2)cc1C(=O)OC.F[P-](F)(F)(F)(F)F.[Ag+]	biofilm formation, crystal violet staining	ATCC 10231	0.44 µg/mL		inhibition	32 ± 5%

Some of these lines once more:
Compound	test	system	conditions	how to read	quantity	value
COC(=O)[C@H](C)NC(=O)c1ccccc1NC(=O)[C@H](Cc1ccc(OC(C)(C)C)cc1)N(C)C(=O)[C@@H](NC(=O)OCc1ccccc1)C(C)C	potentiator, broth microdilution	ATCC 90029	32.0 µg/mL, with: amphotericin B	reference: amphotericin B alone	fold potentiation	32
